# Experimental data gathered from unrelated publications.
# Every numbered part comes from another study and shows a few of its results, in no order.

# Block 1
# Target: Histone acetyltransferase KAT6A, both winged helices, GST fusion (KAT6A, Homo sapiens, UniProt Q92794, residues 1-181)
# Technique: protein binding microarray
# Form: double-stranded DNA, one strand shown
# Medium: in vitro
# Tested at: not given
# Notes: 8-mer, flanks averaged, mean of 2 arrays, mostly near background
# Relative to: not given
# Direction: higher = stronger binding
# Construct (chain): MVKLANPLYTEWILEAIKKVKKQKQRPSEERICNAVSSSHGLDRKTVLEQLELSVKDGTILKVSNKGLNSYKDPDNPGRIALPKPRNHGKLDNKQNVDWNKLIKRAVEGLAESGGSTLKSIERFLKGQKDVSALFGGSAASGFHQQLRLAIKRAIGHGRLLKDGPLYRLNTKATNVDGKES
Sequence,E-score
CAACGCGC,0.31
ACAACAGA,-0.0645
GGTGAGCA,-0.158
ATGGACAA,-0.191

# Block 2
# Target: Sal-like protein 4, full length isoform B (SALL4, Homo sapiens, UniProt Q9UJQ4-2, residues 1-616)
# Technique: universal PBM
# Form: double-stranded DNA, one strand shown
# Medium: in vitro
# Tested at: not given
# Notes: 8-mer, flanks averaged, mean of replicates
# Direction: higher = stronger binding
Sequence,E-score
CGGCTATA,-0.0143
TACCAGAA,0.0695
TCGCCTCA,0.0237

# Block 3
# Target: Interferon regulatory factor 7, full length, phosphomimetic (IRF7, Homo sapiens, UniProt Q92985, residues 1-503, S101K/S471D/S472D/S475D/S476D/S477D/S483D/S484D/S487D)
# Technique: protein-binding microarray
# Form: double-stranded DNA, one strand shown
# Medium: in vitro
# Tested at: 250 nM
# Notes: 60-bp whole probe
# With: salmon DNA 0.4 mg/ml
# Relative to: random background probes
# Direction: higher = stronger binding
# Residues (chain): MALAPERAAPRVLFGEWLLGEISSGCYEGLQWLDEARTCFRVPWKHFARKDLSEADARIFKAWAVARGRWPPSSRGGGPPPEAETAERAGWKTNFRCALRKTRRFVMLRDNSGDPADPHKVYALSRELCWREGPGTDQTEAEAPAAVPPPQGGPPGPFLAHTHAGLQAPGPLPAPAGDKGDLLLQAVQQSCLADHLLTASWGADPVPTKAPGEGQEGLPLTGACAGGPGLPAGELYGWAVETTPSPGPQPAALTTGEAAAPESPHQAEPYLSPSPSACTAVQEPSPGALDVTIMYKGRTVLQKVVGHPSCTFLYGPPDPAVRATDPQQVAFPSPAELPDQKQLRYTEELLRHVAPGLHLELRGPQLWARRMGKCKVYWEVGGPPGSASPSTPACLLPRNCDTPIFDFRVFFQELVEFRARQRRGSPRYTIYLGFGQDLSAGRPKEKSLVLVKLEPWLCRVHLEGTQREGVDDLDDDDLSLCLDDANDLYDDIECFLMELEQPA
Sequence,log fluorescence
GCCTAGCACCTGTTTTTCTCACCACATTTTGTGCTAGTCTTGATTCGCTTGACGCTGCTG,2.28 z-score
GCCTAGCACTTAGGTATCGGTATCGGTTAGTGCTAGGTCTTGATTCGCTTGACGCTGCTG,2.87 z-score
GCCTAGCACGACGCTTTCGGTTTCGGGACGTGCTAGGTCTTGATTCGCTTGACGCTGCTG,7.12 z-score
GCCTAGCACTCATCTCCCATTATATTACTGTGCTAGGTCTTGATTCGCTTGACGCTGCTG,0.824 z-score

# Single results of other studies
Substance,target,test,test system,conditions,scale,endpoint,result
"PhoQ, residues 284 288 289 292 302 303 ALAMYF","PhoP, residues 12 14 15 18 19 LHSVQ (Escherichia coli, UniProt P23836)","Sort-seq, refers to: YFP reporter",E. coli,"PhoQ-PhoP variant library, with: 10 µM Mg2+","relative to: high Mg2+ state, higher = stronger signaling",fold induction,19.2

# A few entries again (block 3):
Sequence,log fluorescence
GCCTAGCACGACGCTTTCGGTTTCGGGACGTGCTAGGTCTTGATTCGCTTGACGCTGCTG,7.12 z-score
